Published values gathered from unrelated publications.
Lines come from different studies, so protocols differ. “And” joins repeats or separate records; there may be more than shown.
Chain of UniProt P07333 (whole entry, looked up): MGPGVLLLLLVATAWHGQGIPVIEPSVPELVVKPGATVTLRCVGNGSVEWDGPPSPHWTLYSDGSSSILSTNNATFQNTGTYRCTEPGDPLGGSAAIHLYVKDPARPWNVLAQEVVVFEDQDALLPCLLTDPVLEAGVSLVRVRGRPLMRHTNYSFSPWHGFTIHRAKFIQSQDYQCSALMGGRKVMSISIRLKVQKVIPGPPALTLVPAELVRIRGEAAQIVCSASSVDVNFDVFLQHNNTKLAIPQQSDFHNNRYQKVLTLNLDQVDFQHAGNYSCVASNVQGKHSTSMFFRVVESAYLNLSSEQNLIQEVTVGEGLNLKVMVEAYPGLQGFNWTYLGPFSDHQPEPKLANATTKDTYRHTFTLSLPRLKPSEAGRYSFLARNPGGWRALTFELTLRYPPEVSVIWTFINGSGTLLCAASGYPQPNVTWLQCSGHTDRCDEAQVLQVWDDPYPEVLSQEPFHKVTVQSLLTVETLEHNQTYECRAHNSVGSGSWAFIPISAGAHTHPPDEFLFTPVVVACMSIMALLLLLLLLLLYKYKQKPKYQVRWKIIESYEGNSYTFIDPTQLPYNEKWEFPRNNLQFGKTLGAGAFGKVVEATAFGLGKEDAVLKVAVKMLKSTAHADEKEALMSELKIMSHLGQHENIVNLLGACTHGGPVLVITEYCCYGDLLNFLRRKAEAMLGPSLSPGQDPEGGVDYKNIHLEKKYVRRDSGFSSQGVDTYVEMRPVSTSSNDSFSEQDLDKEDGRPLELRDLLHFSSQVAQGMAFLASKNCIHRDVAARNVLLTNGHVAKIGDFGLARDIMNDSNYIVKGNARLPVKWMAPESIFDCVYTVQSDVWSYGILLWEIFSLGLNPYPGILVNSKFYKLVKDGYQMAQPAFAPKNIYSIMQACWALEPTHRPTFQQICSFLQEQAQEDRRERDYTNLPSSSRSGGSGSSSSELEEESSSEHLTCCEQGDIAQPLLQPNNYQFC

| Compound | target or system | test | setting | measurement | result |
| --- | --- | --- | --- | --- | --- |
| Cn1cnc2c1c(=O)n(CC(=O)Nc1c(Cl)cccc1Cl)c(=O)n2C | NCI-H1975 | cell growth or viability, MTT | 100 µg | viability | 32.7% |
| Nc1ccn([C@@H]2O[C@H](CO)[C@@H](O)C2(F)F)c(=O)n1 | MDA-MB-231 | cell growth or viability, MTT | 0.3125 µg/mL, 48 h | viability | 80.2% |
| COc1cccc2c1C(=O)c1c(O)c3c(c(O)c1C2=O)C[C@@](O)(C(=O)CO)C[C@@H]3O[C@H]1C[C@H](N)[C@H](O)[C@H](C)O1 | K562 | cell growth or viability, MTT | 50 µg/mL | viability | 43.6% |
| CC(C)C[C@H](NC(=O)[C@H](Cc1ccccc1)NC(=O)c1cnccn1)B(O)O | CHP-212 | cell growth or viability, SRB | 3.333 µM | viability | 86.1% and 98.6% and 62.3% |
| N[C@H]1C(O)O[C@H](CO)[C@@H](O)[C@@H]1O (some centres unmarked) | Caco-2 | cell growth or viability, CCK-8 | 100 µM | viability | 100% |
| N#CC(C(=O)Nc1cccc(C(F)(F)F)c1)=C1Sc2nc3ccc(S(=O)(=O)N4CCCC4)cc3nc2S1 | WI-38 | cell growth or viability, MTT | 12.5 µM, 24 h | viability | 80.8% |
| COc1cccc(NC(=O)Nc2ccc(Oc3nc4ccccc4n4cnnc34)cc2)c1 | WI-38 | cell growth or viability, MTT | 3.125 µM, 24 h | viability | 100% |
| CCOC(=O)C(C(C)=O)=C1Sc2nc3ccc(S(=O)(=O)N4CCCC4)cc3nc2S1 | WI-38 | cell growth or viability, MTT | 1.56 µM, 24 h | viability | 100% |
| CC(=O)c1nn(-c2ccc(C)cc2)/c(=N/N=C(\C)c2ccc(NC(=O)c3ccccc3)cc2)s1 | WI-38 | cell growth or viability, MTS | 10 µM, 24 h | viability | 4.48% |
| COc1cc(N2CCC(N3CCN(C)CC3)CC2)ccc1Nc1ncc(Cl)c(Nc2ccccc2P(C)(C)=O)n1 | Ba/F3 EML4-ALK | cell growth or viability, CCK-8 | 1 µM, 30 min | viability | 88% and 80% and 83% |
| COc1cccc2c1C(=O)c1c(O)c3c(c(O)c1C2=O)C[C@@](O)(C(=O)CO)C[C@@H]3O[C@H]1C[C@H](N)[C@H](O)[C@H](C)O1 | WI-38 | cell growth or viability, MTT | 25 µM, 24 h | viability | 21.2% |
| CNC(=O)c1cc(Oc2ccc(NC(=O)Nc3ccc(Cl)c(C(F)(F)F)c3)cc2)ccn1 | WI-38 | cell growth or viability, MTT | 12.5 µM, 24 h | viability | 40.3% |
| O=C1CCCCC1=C1Sc2nc3ccc(S(=O)(=O)N4CCCC4)cc3nc2S1 | WI-38 | cell growth or viability, MTT | 12.5 µM, 24 h | viability | 86.4% |
| CCCCC(=O)Nc1ccc(-c2ccc3ncn(CCC)c(=O)c3c2)cn1 | Macrophage colony-stimulating factor 1 receptor, autoinhibited (CSF1R, Homo sapiens, UniProt P07333) | binding, competition with immobilised ligand | 0.5 µM | remaining binding | 100% |

Excerpt of the above:
| Compound | target or system | test | setting | measurement | result |
| --- | --- | --- | --- | --- | --- |
| COc1cccc2c1C(=O)c1c(O)c3c(c(O)c1C2=O)C[C@@](O)(C(=O)CO)C[C@@H]3O[C@H]1C[C@H](N)[C@H](O)[C@H](C)O1 | K562 | cell growth or viability, MTT | 50 µg/mL | viability | 43.6% |
| Cn1cnc2c1c(=O)n(CC(=O)Nc1c(Cl)cccc1Cl)c(=O)n2C | NCI-H1975 | cell growth or viability, MTT | 100 µg | viability | 32.7% |
